Measurements gathered from unrelated publications.
Lines come from different studies, so protocols differ. Values joined by “and” are separate records of one study, mostly repeats; a detail may differ. ± gives the spread as reported.
VIM-2: Metallo-beta-lactamase VIM-2 (VIM-2, Escherichia coli, UniProt Q5U7L7)
OPRL1: Nociceptin receptor (OPRL1, Homo sapiens, UniProt P41146)
Sequence of UniProt P41146 (whole entry, looked up): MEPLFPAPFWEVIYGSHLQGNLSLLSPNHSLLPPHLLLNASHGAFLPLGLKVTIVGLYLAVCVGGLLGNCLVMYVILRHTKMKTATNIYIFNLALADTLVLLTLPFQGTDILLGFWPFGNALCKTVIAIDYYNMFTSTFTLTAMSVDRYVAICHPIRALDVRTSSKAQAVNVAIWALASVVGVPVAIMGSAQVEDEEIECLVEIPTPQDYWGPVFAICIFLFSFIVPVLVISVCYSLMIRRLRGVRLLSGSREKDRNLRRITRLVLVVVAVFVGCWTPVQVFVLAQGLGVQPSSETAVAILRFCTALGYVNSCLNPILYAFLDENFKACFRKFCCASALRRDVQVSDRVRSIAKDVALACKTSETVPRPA
Nicotinic acetylcholine receptor alpha1/beta1/epsilon/delta: Nicotinic acetylcholine receptor alpha1/beta1/epsilon/delta (Mus musculus, UniProt P02716+P04756+P09690+P20782)
Sequence of UniProt P02716 (whole entry, looked up): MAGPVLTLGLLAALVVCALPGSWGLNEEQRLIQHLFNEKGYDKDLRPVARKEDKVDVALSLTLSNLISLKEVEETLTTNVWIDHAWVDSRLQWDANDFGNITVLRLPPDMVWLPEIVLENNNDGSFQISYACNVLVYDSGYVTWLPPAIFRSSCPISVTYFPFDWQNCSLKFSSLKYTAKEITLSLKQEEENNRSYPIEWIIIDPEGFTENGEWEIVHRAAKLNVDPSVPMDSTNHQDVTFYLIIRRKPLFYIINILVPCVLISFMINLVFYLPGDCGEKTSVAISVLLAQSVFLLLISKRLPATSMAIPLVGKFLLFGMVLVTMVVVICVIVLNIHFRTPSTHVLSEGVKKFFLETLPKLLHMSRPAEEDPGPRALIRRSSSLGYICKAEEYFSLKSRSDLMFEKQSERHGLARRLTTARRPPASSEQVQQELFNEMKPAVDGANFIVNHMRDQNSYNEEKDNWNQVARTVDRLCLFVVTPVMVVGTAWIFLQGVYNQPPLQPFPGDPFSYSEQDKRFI
Sequence of UniProt P20782 (whole entry, looked up): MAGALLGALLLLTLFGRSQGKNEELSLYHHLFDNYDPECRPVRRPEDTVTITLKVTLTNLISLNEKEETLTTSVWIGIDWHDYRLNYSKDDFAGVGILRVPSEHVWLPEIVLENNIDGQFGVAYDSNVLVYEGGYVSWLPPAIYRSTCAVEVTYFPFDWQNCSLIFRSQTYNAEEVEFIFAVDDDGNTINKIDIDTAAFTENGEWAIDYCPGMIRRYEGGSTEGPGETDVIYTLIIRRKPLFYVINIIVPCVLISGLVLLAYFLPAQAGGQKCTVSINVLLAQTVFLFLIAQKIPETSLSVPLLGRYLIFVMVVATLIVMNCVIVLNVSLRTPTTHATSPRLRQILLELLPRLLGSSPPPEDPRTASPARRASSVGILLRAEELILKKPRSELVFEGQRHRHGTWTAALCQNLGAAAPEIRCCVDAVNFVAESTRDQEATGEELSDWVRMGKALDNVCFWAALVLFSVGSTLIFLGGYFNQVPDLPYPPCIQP
Sequence of UniProt P09690 (whole entry, looked up): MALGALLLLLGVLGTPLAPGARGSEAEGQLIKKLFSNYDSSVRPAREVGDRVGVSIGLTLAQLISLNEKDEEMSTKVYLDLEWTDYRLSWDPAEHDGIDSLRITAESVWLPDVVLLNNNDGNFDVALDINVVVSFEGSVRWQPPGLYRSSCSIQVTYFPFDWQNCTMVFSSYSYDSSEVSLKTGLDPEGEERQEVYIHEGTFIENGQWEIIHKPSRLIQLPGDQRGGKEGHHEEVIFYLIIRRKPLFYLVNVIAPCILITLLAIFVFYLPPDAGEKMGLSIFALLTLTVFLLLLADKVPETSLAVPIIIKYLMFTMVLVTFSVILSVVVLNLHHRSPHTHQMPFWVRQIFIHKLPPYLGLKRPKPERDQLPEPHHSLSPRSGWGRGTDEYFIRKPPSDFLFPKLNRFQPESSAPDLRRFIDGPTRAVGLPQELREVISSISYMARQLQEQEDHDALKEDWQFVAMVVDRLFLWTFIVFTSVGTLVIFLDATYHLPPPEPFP
Sequence of UniProt P04756 (whole entry, looked up): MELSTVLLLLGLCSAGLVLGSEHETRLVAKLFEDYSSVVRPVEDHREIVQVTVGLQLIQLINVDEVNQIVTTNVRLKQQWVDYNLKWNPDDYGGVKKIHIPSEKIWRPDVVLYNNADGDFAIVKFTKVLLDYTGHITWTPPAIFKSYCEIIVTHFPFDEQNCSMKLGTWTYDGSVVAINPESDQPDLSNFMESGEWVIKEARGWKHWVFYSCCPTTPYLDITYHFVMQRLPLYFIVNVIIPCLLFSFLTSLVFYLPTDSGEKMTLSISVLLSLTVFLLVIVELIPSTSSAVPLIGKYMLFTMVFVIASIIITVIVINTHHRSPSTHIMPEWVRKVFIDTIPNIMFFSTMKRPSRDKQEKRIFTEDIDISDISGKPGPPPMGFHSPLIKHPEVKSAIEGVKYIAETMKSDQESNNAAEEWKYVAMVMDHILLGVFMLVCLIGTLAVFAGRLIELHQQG
UCHL1: Ubiquitin carboxyl-terminal hydrolase isozyme L1 (UCHL1, Homo sapiens, UniProt P09936)
Sequence of UniProt P09936 (whole entry, looked up): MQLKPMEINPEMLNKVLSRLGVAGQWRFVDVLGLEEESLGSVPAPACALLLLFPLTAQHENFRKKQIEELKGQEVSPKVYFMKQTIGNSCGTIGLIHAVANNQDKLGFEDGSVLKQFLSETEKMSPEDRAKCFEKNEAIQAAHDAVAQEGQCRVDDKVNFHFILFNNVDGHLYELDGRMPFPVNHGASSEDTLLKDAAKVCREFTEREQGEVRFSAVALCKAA
ALB: Albumin (ALB, Homo sapiens, UniProt P02768)
Sequence of UniProt P42866 (whole entry, looked up): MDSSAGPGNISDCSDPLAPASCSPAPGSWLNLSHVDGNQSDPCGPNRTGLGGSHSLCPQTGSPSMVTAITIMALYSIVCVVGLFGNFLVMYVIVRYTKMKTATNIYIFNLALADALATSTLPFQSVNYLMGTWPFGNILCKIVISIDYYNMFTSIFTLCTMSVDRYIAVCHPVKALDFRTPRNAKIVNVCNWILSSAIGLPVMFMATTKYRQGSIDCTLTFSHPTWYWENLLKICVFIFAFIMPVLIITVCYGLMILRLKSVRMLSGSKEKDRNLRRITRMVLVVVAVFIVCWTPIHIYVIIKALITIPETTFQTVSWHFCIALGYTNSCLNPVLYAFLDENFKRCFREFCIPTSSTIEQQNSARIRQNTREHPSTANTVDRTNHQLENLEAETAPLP
Sequence of UniProt D0VWV4 (whole entry, looked up): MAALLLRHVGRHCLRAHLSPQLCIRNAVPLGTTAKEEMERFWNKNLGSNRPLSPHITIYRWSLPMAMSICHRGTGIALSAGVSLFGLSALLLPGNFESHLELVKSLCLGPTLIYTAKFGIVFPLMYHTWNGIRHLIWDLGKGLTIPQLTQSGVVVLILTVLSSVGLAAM
Sequence of UniProt Q007T0 (whole entry, looked up): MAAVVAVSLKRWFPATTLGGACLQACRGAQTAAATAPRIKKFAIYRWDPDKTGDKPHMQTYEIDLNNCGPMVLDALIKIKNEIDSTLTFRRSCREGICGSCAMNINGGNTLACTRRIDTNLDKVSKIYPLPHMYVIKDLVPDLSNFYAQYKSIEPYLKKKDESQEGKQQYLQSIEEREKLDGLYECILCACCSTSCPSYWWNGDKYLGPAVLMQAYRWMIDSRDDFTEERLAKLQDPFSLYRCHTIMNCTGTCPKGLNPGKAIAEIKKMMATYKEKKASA
Sequence of UniProt A5GZW8 (whole entry, looked up): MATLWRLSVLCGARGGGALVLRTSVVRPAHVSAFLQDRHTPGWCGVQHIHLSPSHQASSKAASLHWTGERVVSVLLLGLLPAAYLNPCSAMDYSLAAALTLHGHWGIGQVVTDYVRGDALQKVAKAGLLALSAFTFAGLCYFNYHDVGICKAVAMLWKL
Sequence of UniProt P27361 (whole entry, looked up): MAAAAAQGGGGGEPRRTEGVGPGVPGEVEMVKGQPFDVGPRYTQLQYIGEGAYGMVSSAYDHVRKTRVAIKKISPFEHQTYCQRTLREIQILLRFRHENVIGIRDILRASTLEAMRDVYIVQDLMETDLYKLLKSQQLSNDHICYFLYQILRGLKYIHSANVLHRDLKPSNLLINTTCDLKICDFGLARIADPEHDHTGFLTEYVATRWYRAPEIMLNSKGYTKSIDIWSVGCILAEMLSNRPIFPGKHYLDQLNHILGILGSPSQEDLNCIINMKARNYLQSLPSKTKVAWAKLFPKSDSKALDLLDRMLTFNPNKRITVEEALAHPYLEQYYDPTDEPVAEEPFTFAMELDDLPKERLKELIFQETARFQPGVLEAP
Sequence of UniProt Q62351 (whole entry, looked up): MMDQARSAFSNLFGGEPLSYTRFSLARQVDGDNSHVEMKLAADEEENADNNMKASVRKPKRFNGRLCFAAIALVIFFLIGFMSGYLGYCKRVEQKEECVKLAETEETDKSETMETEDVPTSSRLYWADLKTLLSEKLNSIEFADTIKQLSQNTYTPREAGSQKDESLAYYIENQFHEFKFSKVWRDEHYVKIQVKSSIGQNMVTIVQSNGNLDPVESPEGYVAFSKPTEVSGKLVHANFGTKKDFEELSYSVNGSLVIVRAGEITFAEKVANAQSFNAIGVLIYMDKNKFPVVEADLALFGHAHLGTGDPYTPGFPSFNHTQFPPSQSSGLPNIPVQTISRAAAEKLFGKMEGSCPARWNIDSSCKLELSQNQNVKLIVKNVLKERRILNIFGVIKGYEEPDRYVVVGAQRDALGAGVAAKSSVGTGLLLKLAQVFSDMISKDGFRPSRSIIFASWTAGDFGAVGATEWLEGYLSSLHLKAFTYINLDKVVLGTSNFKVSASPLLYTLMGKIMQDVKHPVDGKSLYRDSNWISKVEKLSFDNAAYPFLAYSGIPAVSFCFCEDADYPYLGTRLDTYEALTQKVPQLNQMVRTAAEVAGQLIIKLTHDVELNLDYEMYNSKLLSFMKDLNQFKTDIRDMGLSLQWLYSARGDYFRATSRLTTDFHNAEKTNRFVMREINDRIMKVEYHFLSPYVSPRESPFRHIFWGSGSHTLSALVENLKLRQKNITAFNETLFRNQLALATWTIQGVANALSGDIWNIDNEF
Sequence of UniProt P11234 (whole entry, unmodified, looked up): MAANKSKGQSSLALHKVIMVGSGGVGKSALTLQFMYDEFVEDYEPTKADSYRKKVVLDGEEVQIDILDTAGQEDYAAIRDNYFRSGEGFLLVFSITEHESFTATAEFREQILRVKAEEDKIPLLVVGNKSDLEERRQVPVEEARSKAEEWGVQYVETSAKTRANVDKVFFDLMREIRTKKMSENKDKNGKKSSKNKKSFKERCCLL

| Compound | target | assay | system | conditions | how to read | quantity | result |
| --- | --- | --- | --- | --- | --- | --- | --- |
| CC(=O)NC[C@H]1[C@H](O)[C@H](O)[C@@H]2[C@H](O)C[C@@H](CO)N21 | human placental β-N-acetylglucosaminidase | – | – | 0.00161 µM, run 2, with: p-nitrophenyl GlcNAc | – | inhibition | 22.4% |
| O=C(O)c1cccc(C(O)P(=O)(O)O)n1 (stereo not drawn) | VIM-2 | inhibitor | – | with: nitrocefin | – | dissociation half-life | 6.1 ± 0.2 min |
| O=C(Nc1cnccc1Cl)N1CCN(Cc2ccc3c(c2)OC(F)(F)O3)CC1 | OPRL1 | radioligand binding, inhibitor | – | 10 µM, human, with: [3H]nociceptin | – | inhibition | 2% |
| COc1cc(N)c(Cl)cc1C(=O)NC1CN2CCC1CC2 (stereo not drawn) | Probable G-protein coupled receptor 153 (GPR153, Homo sapiens, UniProt Q6NV75) | β-arrestin recruitment, TANGO luminescence, measured: GPR153 | – | concentration not given | baseline: basal luminescence | log2 fold change | 0.227 |
| Clc1cccc(COc2ccccc2CNCc2ccncc2)c1 | Aminoglycoside N(3)-acetyltransferase IV (aacC4, Salmonella sp, UniProt P08988) | neomycin acetylation, inhibitor | – | with: neomycin | – | highest concentration without inhibition | > 200 µM |
| CN(C(=O)n1cnc(-c2ccc[n+]([O-])c2)c1)C1CCCCC1 | Calcium/calmodulin-dependent protein kinase type IV (CAMK4, Homo sapiens, UniProt Q16566) | enzyme activity | – | 10 µM, with: autocamtide-2 | – | inhibition | -2% |
| [2H]c1c([2H])c([C@]2([2H])CCCN2C(=O)C(C)(C)Oc2ccc3cn[nH]c3c2)c([2H])c([2H])c1C([2H])([2H])[2H] | Myosin-IIIa (MYO3A, Homo sapiens, UniProt Q8NEV4) | KINOMEscan | – | 1 µM | baseline: DMSO control | remaining binding | 78% |
| CCC[N+]1(CC)CCN(c2ccccc2Cl)CC1.[I-] | Nicotinic acetylcholine receptor alpha1/beta1/epsilon/delta | ion current, inhibitor, two-electrode voltage clamp | Xenopus oocytes | 30 µM, after co-application, unit not given, with: ACh 30 µM | baseline: ACh alone | ACh response | 0.641 ± 0.044 |
| Cc1nn(C)cc1-c1nc2c(N3CCN(Cc4ccc(Cl)cc4)CC3)c(Cl)cnc2[nH]1 | Serine/threonine-protein kinase NIM1 (NIM1K, Homo sapiens, UniProt Q8IY84) | KINOMEscan | – | 1 µM | baseline: DMSO control | remaining binding | 100% |
| C[C@@H](NC(=O)[C@@H](N)Cc1ccc(O)cc1)C(=O)NCC(=O)N(C)[C@@H](Cc1ccccc1)C(=O)NCCO | Mu-type opioid receptor (Oprm1, Mus musculus, UniProt P42866) | agonist | mouse spinal cord membranes | 562 nM | baseline: baseline | GTPγS binding | 31.6% and 42.6% and 28.9% and 25.8% and 29.5% and 27% and 39.9% and 33.2% |
| COC(=O)[C@@]1(O)C[C@H]2O[C@]1(C)n1c3ccccc3c3c4c(c5c6ccccc6n2c5c31)C(=O)NC4 | Mitogen-activated protein kinase 3 (MAPK3, Homo sapiens, UniProt P27361) | ADP-Glo | – | 1.38 nM, with: MBP substrate | – | kinase activity | 102% and 95.9% and 69.1% |
| COc1ccc(F)cc1C(=O)NCc1ccc(-c2nn([C@@H](C)C(F)(F)F)c(N)c2C(N)=O)cc1 | Protein-tyrosine kinase 6 (PTK6, Homo sapiens, UniProt Q13882) | enzyme activity | – | – | baseline: PTK6 over BTK | selectivity ratio | 17.2 |
| COC(=O)[C@]1(O)C[C@@H]2O[C@@]1(C)n1c3ccccc3c3c4c(c5c6ccccc6n2c5c31)C(=O)NC4 | Transient receptor potential cation channel subfamily M member 8 (TRPM8, Homo sapiens, UniProt Q7Z2W7) | antagonist | HEK293 | 5 µM | – | remaining activity | 106 ± 2.83% |
| C#CCCCCNC(=O)CI | Neutral cholesterol ester hydrolase 1 (NCEH1, Homo sapiens, UniProt Q6PIU2) | mass spectrometry profiling | H460 cell lysate | 100 µM over 10 µM, UniProt Q6PIU2 | baseline: high over low concentration | reactivity ratio | 1.76 |
| O=C(CCl)C1CCC2(CC1)CC2 | UCHL1 | covalent, intact protein LC-MS | – | 12.5 µM | – | labelling | 12.3% |
| C[C@H]1COCCN1c1nc(NCc2cccnc2C(F)(F)F)c2cccnc2n1 | Adenosine receptor A2a (ADORA2A, Homo sapiens, UniProt P29274) | binding | – | CEREP panel | – | IC50 | > 100 µM |
| C[N+]1(C)CCN(c2cccc(Cl)c2)CC1.[I-] | Nicotinic acetylcholine receptor alpha1/beta1/epsilon/delta | peak current, agonist, two-electrode voltage clamp | Xenopus oocytes | 30 µM | baseline: ACh 30 µM | response relative to ACh | 47% |
| C[C@H]1CN(c2n[nH]c3nc(N[C@H]4CC[C@H](NS(=O)(=O)CCC(F)(F)F)CC4)ncc23)CCO1 | Nuclear cap-binding protein subunit 1 (Homo sapiens, UniProt Q09161) | Kinobeads competition, measured: NCBP1 | – | 20 µM, unit not given | baseline: vehicle | remaining binding | 1.26 |
| COc1cc(-c2[o+]c3cc(O)cc(O)c3cc2O[C@@H]2O[C@H](CO)[C@@H](O)[C@H](O)[C@H]2O)cc(OC)c1O | ALB | binding, visible absorption | – | 50 µM, pH 7, with: HSA up to 200 µM | baseline: without HSA | bathochromic shift | 57 nm |
| O=C(c1ccc(Cl)cc1)N1CCN2C(=O)N(OC(=O)N3CCOc4ccccc43)C(=O)C2C1 (stereo not drawn) | Liver carboxylesterase 1 (CES1, Homo sapiens, UniProt P23141) | enzyme activity, inhibitor, MS-based ABPP | SW-620 in situ | 10 µM, 2 h, 37 °C | baseline: compound over DMSO, lower = stronger inhibition | median ratio | 1.02 |

| Compound | target | assay | system | conditions | how to read | quantity | result |
| --- | --- | --- | --- | --- | --- | --- | --- |
| C=C(CN(C(=O)c1c(C(F)F)nn(C)c1F)C1CC1)c1ccc(Cl)cc1Cl | SDHD/SDHC/SDHB (Sus scrofa, UniProt A5GZW8+D0VWV4+Q007T0) | enzyme activity, inhibitor, DCIP reduction | pig | 0.1 µM, with: DCIP 80 µM | – | reaction velocity | 0.0167 µM/s and 0.0171 µM/s and 0.0172 µM/s |
| C#CCN1C(=O)C2(C(C#N)=C(N)OC(C)=C2C(=O)OC(C)(C)C)c2ccccc21 (stereo not drawn) | UCHL1 | covalent, intact protein LC-MS | – | 12.5 µM | – | labelling | 21.7% |
| S=c1[nH]c2ccccc2s1 | Baculoviral IAP repeat-containing protein 3, BIR1 domain (BIRC3, Homo sapiens, UniProt Q13489) | binding, affinity selection mass spectrometry | – | 100 nM, pooled screen | baseline: other proteins | fold change | 10.6 |
| CC[N+]1(CC)CCN(c2cccc(OC)c2)CC1 | Nicotinic acetylcholine receptor alpha1/beta1/epsilon/delta | ion current, inhibitor, two-electrode voltage clamp | Xenopus oocytes | 30 µM, after co-application, unit not given, with: ACh 30 µM | baseline: ACh alone | ACh response | 0.4 ± 0.158 |
| COc1cc(Nc2ncc(F)c(Nc3ccc4c(n3)NC(=O)C(C)(C)O4)n2)cc(OC)c1OC | Dual serine/threonine and tyrosine protein kinase (DSTYK, Homo sapiens, UniProt Q6XUX3) | binding, KINOMEscan | – | 10 µM, RIPK5 kinase | – | inhibition | 100% |
| CN(C(=O)n1cnc(-c2ccc[n+]([O-])c2)c1)C1CCCCC1 | Fatty-acid amide hydrolase 1 (Faah, Rattus norvegicus, UniProt P97612) | enzyme activity, ABPP | rat, brain | oral, 10 mg/kg/day, 28 days | baseline: vehicle | fold change | -59 |
| CC[C@@H](C)[C@@H](NC(=O)[C@@H](Cc1ccc(O)cc1)NC(=O)[C@H]1CCCN1C(=O)[C@@H](CCCNC(=N)N)NC(=O)[C@H](N)Cc1c[nH]cn1)C(=O)N[C@H](C)C(=O)N[C@H](Cc1c[nH]cn1)C(=O)N[C@H](CCCNC(=N)N)C(=O)N[C@H](CCCCNC(=O)c1cccc(S(=O)(=O)F)c1)C(=O)N[C@H](Cc1ccc(O)cc1)C(=O)N[C@H](CO)C(=O)N[C@H](Cc1ccccc1)C(N)=O | Transferrin receptor protein 1 (Tfrc, Mus musculus, UniProt Q62351) | flow cytometry | B16 | 2 h, unit not given | baseline: 0 h | surface expression | 0.901 and 0.729 |
| COc1ncccc1-c1cnn2ccc(N3CCN(C(=O)OC(C)C)CC3)nc12 | Ribosomal protein S6 kinase alpha-2, N-terminal kinase domain (RPS6KA2, Homo sapiens, UniProt Q15349) | KINOMEscan binding | – | 1 µM | baseline: untreated control | remaining binding | 95% |
| CC(C)(C)OC(=O)NCCOC(=O)[C@@H]1CS[C@H]2CS[C@H](CS)N21 | sfhI (Serratia fonticola, UniProt Q9RMI1) | activity class | – | concentration not given | – | activity | inactive |
| O=C(O)COP(=O)(O)O | TPI1 (Saccharomyces cerevisiae, UniProt P00942, S211G) | enzyme activity, competitive inhibitor, GPDH/NADH-coupled | – | pH 6.4, 25 °C, ionic strength 0.1 NaCl, with: glyceraldehyde 3-phosphate substrate | baseline: mutant over wild type | Ki ratio | 2.8 |
| CC(C)[C@@H](O)CC[C@@H](C)[C@H]1CC[C@H]2[C@@H]3CC=C4C[C@@H](O)CC[C@]4(C)[C@H]3CC[C@]12C | Glutamate NMDA receptor; GRIN1/GRIN2B (GRIN1/GRIN2B, Homo sapiens, UniProt Q05586+Q13224, L567A) | positive allosteric modulator, two-electrode voltage clamp | Xenopus oocytes expressing GluN2B-L567A | 10 µM, 0.02% cremophor, with: 100 µM glutamate and glycine | baseline: without compound | current response | 449 ± 23% |
| Cc1ncsc1-c1ccc([C@H](CC(=O)N2CCN(c3ccc(C#Cc4ccc(C(=O)N5CCC(n6cc(-c7ccc8c(c7)CCN8C(=O)Cc7cccc(OC(F)(F)F)c7)c7c(N)ncnc76)CC5)cc4)cn3)CC2)NC(=O)[C@@H]2C[C@@H](O)CN2C(=O)[C@@H](NC(=O)C2(F)CC2)C(C)(C)C)cc1 | Receptor-interacting serine/threonine-protein kinase 1 (RIPK1, Homo sapiens, UniProt Q13546) | degrader, Western blot | Jurkat cells | 100 nM | – | time to complete degradation | ≤ 2 h |
| O=C(O)C(F)(OC(F)(F)C(F)(F)C(F)(F)F)C(F)(F)F (stereo not drawn) | ALB | ITC | – | 25 °C, first binding site, with: HSA 20 µM | – | association constant | 220000 M⁻¹ |
| O=C(Nc1cccnn1)N1CCC(=Cc2cccc(Oc3ccc(C(F)(F)F)cn3)c2)CC1 | AMPA receptor, rat | binding | – | 10 µM, with: [3H]AMPA | – | inhibition | -7% |
| O=S(=O)(F)c1ccc(S(=O)(=O)Nc2cc(OC(F)(F)F)cc(C3CC3)c2)c2c1CCCC2 | RALB (Homo sapiens, UniProt P11234, Y82F) | inhibitor, BODIPY-FL-GDP exchange | – | concentration not given, 24 h, 4 °C, with: Rgl2 | – | nucleotide exchange | no inhibition |
| CN1CCN(c2cc(-c3ccncc3)c(-c3ccc4ccccc4c3)nn2)CC1 | OPRL1 | antagonist, FLIPR | – | 10 µM | – | inhibition | 1% |
| CC(C)(O/N=C(\C(=O)N[C@@H]1C(=O)N2C(C(=O)[O-])=C(C[N+]3(CCNC(=O)c4ccc(O)c(O)c4Cl)CCCC3)CS[C@H]12)c1csc(N)n1)C(=O)O | VIM-2 | substrate, stopped-flow fluorescence | – | pH 7.5, 10 °C | baseline: NDM-1 | Trp fluorescence recovery time | 10 fold |
| COc1ccc(N2C(=O)N(c3c(C)cccc3Cl)Cc3cnc(Nc4ccc(C5CCN(C)CC5)cc4OC)nc32)nc1 | MAP kinase-interacting serine/threonine-protein kinase 1 (MKNK1, Homo sapiens, UniProt Q9BUB5) | kinase activity, inhibitor | – | 0.5 µM, MNK1 | – | inhibition | 1.7% |
| Nc1ncc(-c2nc(N3CCOCC3)nc(N3CCOCC3)n2)c(C(F)F)n1 | Cyclin-G-associated kinase (GAK, Homo sapiens, UniProt O14976) | KINOMEscan | – | 10 µM | – | remaining binding | 75% |

Some of these lines once more:
| Compound | target | assay | system | conditions | how to read | quantity | result |
| --- | --- | --- | --- | --- | --- | --- | --- |
| CC(C)(C)OC(=O)NCCOC(=O)[C@@H]1CS[C@H]2CS[C@H](CS)N21 | sfhI (Serratia fonticola, UniProt Q9RMI1) | activity class | – | concentration not given | – | activity | inactive |
| O=C(O)COP(=O)(O)O | TPI1 (Saccharomyces cerevisiae, UniProt P00942, S211G) | enzyme activity, competitive inhibitor, GPDH/NADH-coupled | – | pH 6.4, 25 °C, ionic strength 0.1 NaCl, with: glyceraldehyde 3-phosphate substrate | baseline: mutant over wild type | Ki ratio | 2.8 |
| CC(C)[C@@H](O)CC[C@@H](C)[C@H]1CC[C@H]2[C@@H]3CC=C4C[C@@H](O)CC[C@]4(C)[C@H]3CC[C@]12C | Glutamate NMDA receptor; GRIN1/GRIN2B (GRIN1/GRIN2B, Homo sapiens, UniProt Q05586+Q13224, L567A) | positive allosteric modulator, two-electrode voltage clamp | Xenopus oocytes expressing GluN2B-L567A | 10 µM, 0.02% cremophor, with: 100 µM glutamate and glycine | baseline: without compound | current response | 449 ± 23% |
